Results collected from several papers.
Every numbered part comes from another study and shows a few of its results, in no order. ± marks the error that the study gave.

Set 1
Cell line: human erythrocytes, washed
Time: 1 h
Temperature: 37 °C
Notes: 2% v/v RBC suspension
Structure (SMILES) | HD50
CC[C@H](C)[C@H](NC(=O)CNC(=O)[C@H](C)NC(=O)[C@H](CCC(=O)O)NC(=O)[C@@H]1CCCN1C(=O)[C@@H](N)CC(=O)O)C(=O)NCC(=O)N[C@@H](C)C(=O)N[C@H](C(=O)N[C@@H](CC(C)C)C(=O)N[C@@H](CCCCN)C(=O)N[C@H](C(=O)N[C@@H](CC(C)C)C(=O)N[C@H](C(=O)N[C@H](C(=O)NCC(=O)N[C@@H](CC(C)C)C(=O)N1CCC[C@H]1C(=O)N[C@@H](C)C(=O)N[C@@H](CC(C)C)C(=O)N[C@H](C(=O)N[C@@H](CO)C(=O)N[C@@H](Cc1c[nH]c2ccccc12)C(=O)N[C@H](C(=O)N[C@@H](CCCCN)C(=O)N[C@@H](CCCNC(=N)N)C(=O)N[C@@H](CCCCN)C(=O)N[C@@H](CCCNC(=N)N)C(=O)N[C@@H](CCC(N)=O)C(=O)N[C@@H](CCC(N)=O)C(N)=O)[C@@H](C)CC)[C@@H](C)CC)[C@@H](C)O)[C@@H](C)O)C(C)C)C(C)C | 4.7 ± 0.3 µmol/L
CC[C@H](C)[C@H](NC(=O)CNC(=O)[C@H](C)N)C(=O)NCC(=O)N[C@@H](C)C(=O)N[C@H](C(=O)N[C@@H](CC(C)C)C(=O)N[C@@H](CCCCN)C(=O)N[C@H](C(=O)N[C@@H](CC(C)C)C(=O)N[C@H](C(=O)N[C@H](C(=O)NCC(=O)N[C@@H](CC(C)C)C(=O)N1CCC[C@H]1C(=O)N[C@@H](C)C(=O)N[C@@H](CC(C)C)C(=O)N[C@H](C(=O)N[C@@H](CO)C(=O)N[C@@H](Cc1c[nH]c2ccccc12)C(=O)N[C@H](C(=O)N[C@@H](CCCCN)C(=O)N[C@@H](CCCNC(=N)N)C(=O)N[C@@H](CCCCN)C(=O)N[C@@H](CCCNC(=N)N)C(=O)N[C@@H](CCC(N)=O)C(=O)N[C@@H](CCC(N)=O)C(N)=O)[C@@H](C)CC)[C@@H](C)CC)[C@@H](C)O)[C@@H](C)O)C(C)C)C(C)C | 1.5 ± 0.1 µmol/L
CC[C@H](C)[C@H](NC(=O)CNC(=O)[C@H](C)NC(=O)[C@H](CCC(=O)O)NC(=O)[C@@H]1CCCN1C(=O)[C@H](CC(=O)O)NC(=O)[C@H](C)N)C(=O)NCC(=O)N[C@@H](C)C(=O)N[C@H](C(=O)N[C@@H](CC(C)C)C(=O)N[C@@H](CCCCN)C(=O)N[C@H](C(=O)N[C@@H](CC(C)C)C(=O)N[C@H](C(=O)N[C@H](C(=O)NCC(=O)N[C@@H](CC(C)C)C(=O)N1CCC[C@H]1C(=O)N[C@@H](C)C(=O)N[C@@H](CC(C)C)C(=O)N[C@H](C(=O)N[C@@H](CO)C(=O)N[C@@H](Cc1c[nH]c2ccccc12)C(=O)N[C@H](C(=O)N[C@@H](CCCCN)C(=O)N[C@@H](CCCNC(=N)N)C(=O)N[C@@H](CCCCN)C(=O)N[C@@H](CCCNC(=N)N)C(=O)N[C@@H](CCC(N)=O)C(=O)N[C@@H](CCC(N)=O)C(N)=O)[C@@H](C)CC)[C@@H](C)CC)[C@@H](C)O)[C@@H](C)O)C(C)C)C(C)C | 6.2 ± 0.2 µmol/L

Set 2
Species: Kunming mice both sexes
Route: intraperitoneal
Time: 7 days
SMILES | LD50 [mg/kg]
CCC1=NC2CC3(C(=O)N(OC)c4cc(OC)ccc43)C3OCC2C1C3O (stereo not shown) | 0.41
CON1C(=O)C2(CC3N=C(C(C)=O)C4C(O)C2OCC34)c2ccccc21 (stereo not shown) | > 30
CCC1NC2CC3(C(=O)N(OC)c4cc(OC)ccc43)C3OCC2C1C3O (stereo not shown) | 0.17

Other studies, line by line
SMILES | target or system | test | system | conditions | endpoint | result
CC(C)Oc1ccc(-n2cnc3cc(/C=C\c4ccc(C(C)(C)O)cc4)ccc32)cc1 | Lassa virus | – | HeLa, clade III Nigeria-231 | – | EC50 | 0.17 ± 0.08 µM
CC[C@H](C)[C@H](NC(=O)CNC(=O)[C@H](CC(C)C)NC(=O)CNC(=O)[C@H](CCCCN)NC(=O)[C@H](CCC(=O)O)NC(=O)[C@H](CCCCN)NC(=O)[C@@H](NC(=O)[C@H](Cc1ccccc1)NC(=O)[C@H](CC(=O)O)NC(=O)[C@H](CCCCN)NC(=O)[C@H](C)NC(=O)[C@H](CCCCN)NC(=O)[C@H](CC(N)=O)NC(=O)[C@H](CC(C)C)NC(=O)[C@H](Cc1c[nH]c2ccccc12)NC(=O)[C@H](CC(=O)O)NC(=O)[C@H](CCCCN)NC(=O)[C@@H](NC(=O)CNC(=O)[C@H](C)N)[C@@H](C)O)[C@@H](C)CC)C(=O)N[C@@H](CC(C)C)C(=O)N[C@@H](CO)C(=O)N[C@@H](C)C(=O)N[C@@H](C)C(=O)N[C@@H](C)C(=O)N[C@@H](CC(N)=O)C(=O)N[C@@H](C)C(=O)N[C@@H](C)C(=O)N[C@H](C(=O)N[C@@H](CC(N)=O)C(=O)O)[C@@H](C)CC | Lucilia cuprina | – | – | thorax injection, 1 h | PD50 | 37.1 ± 4.9 nmol/g
O=c1ccn(C2OC(F)(CO)C(O)C2O)c(=O)[nH]1 (stereo not shown) | Lassa virus | – | HeLa, clade III Nigeria-231 | – | EC50 | 8.43 ± 1.02 µM
CC(C)C[C@@H]1NC(=O)[C@H](CCCNC(=N)N)NC(=O)[C@@H]2CCCN2C(=O)[C@@H]2CSSC[C@H](NC(=O)CNC(=O)[C@@H]3CCCN3C(=O)[C@H](CCCCN)NC(=O)[C@H](CC(=O)O)NC(=O)[C@@H](NC(=O)CN)C(C)C)C(=O)N[C@@H](CCCNC(=N)N)C(=O)N[C@@H](Cc3ccc(O)cc3)C(=O)N[C@@H](CC(C)C)C(=O)N[C@@H](Cc3ccccc3)C(=O)NCC(=O)NCC(=O)N[C@H]3CSSC[C@H](NC(=O)CNC1=O)C(=O)N[C@@H](CCCCN)C(=O)NCC(=O)N[C@@H](CCCCN)C(=O)NCC(=O)N[C@@H](Cc1c[nH]cn1)C(=O)N[C@@H](CC(=O)O)C(=O)N[C@@H](Cc1ccc(O)cc1)C(=O)N[C@H](C(=O)N[C@@H](C)C(=O)N[C@@H](Cc1c[nH]c4ccccc14)C(=O)N[C@@H](CC(=O)O)C(=O)NCC(=O)N[C@H](C(=O)N[C@@H](Cc1ccccc1)C(=O)N[C@@H](CO)C(=O)N[C@@H](CC(=O)O)C(=O)O)[C@@H](C)O)CSSC[C@H](NC(=O)[C@H](CC(=O)O)NC(=O)[C@H](CC(=O)O)NC(=O)[C@H](CC(=O)O)NC(=O)[C@H](CO)NC(=O)[C@H](CCCCN)NC3=O)C(=O)N2 | – | electronic von Frey | adult mice | intraplantar, 600 pmol/paw | paw withdrawal threshold | 1 ± 0.1 g
